Results collected from several papers.
Each numbered part is a random draw from the data of one study; scales do not carry over between parts.

Series 1
Target: Prothrombin, mature alpha-thrombin (F2, Homo sapiens, UniProt P00734)
Technique: aptamer microarray, sandwich
Molecule type: DNA with 2'F-ANA
Sample: in vitro
Tested at: 200 nM
Setting: whole 15-mer aptamer, many near background
Added: Cy3 exosite-II aptamer, 400 nM
Direction: higher = stronger binding
Sequence: GGTTGGTGTGGTTGG
Modification	mean fluorescence intensity
2'F-ANA at 1 3 5 10 13	44.9 a.u.
2'F-ANA at 1 3 4 6 7 8 10 11 12 13	97.6 a.u.
2'F-ANA at 3 5 6 8 9 10 12	63.4 a.u.
2'F-ANA at 1 4 5 6 7 9 10 15	64.4 a.u.
2'F-ANA at 3 5 6 10 11	51.9 a.u.
2'F-ANA at 2 3 4 5 6 7 8 9 11 13	64.2 a.u.
2'F-ANA at 2 4 5 6 10 13 14	45.2 a.u.
2'F-ANA at 3 8 11 12 14	754 a.u.
2'F-ANA at 1 3 5 8 9 12 13 14 15	48.9 a.u.
2'F-ANA at 2 3 4 5 6 7 13 14	48.8 a.u.
2'F-ANA at 3 4 5 6 7 10 13 14	44.5 a.u.
2'F-ANA at 1 2 3 8 11 12 15	418 a.u.
2'F-ANA at 1 2 3 5 10 11 12	50 a.u.
2'F-ANA at 1 2 3 5 6 8 10 13 15	54.4 a.u.
2'F-ANA at 1 2 3 4 5 8 9 10 11 13	74.7 a.u.
2'F-ANA at 3 4 5 6 11 12 13 15	99.9 a.u.
2'F-ANA at 2 5 7 9 10 11	47.6 a.u.
2'F-ANA at 1 2 3 12 13 14	89.7 a.u.
2'F-ANA at 1 3 5 11 13	51.9 a.u.
2'F-ANA at 1 3 4 6 7 8 9	218 a.u.
2'F-ANA at 1 2 3 4 6 7 11 12 13 15	205 a.u.
2'F-ANA at 3 4 5 13	65.1 a.u.
2'F-ANA at 3 4 6 7 9 10 13	220 a.u.
2'F-ANA at 1 3 5 10 11 13 14	48 a.u.
2'F-ANA at 1 2 3 6 7 8 14	79.1 a.u.

Series 2
Target: Ras GTPase-activating protein-binding protein 1, RRM domain (G3BP1, Homo sapiens, UniProt Q13283)
Sequence of UniProt Q13283 (whole entry, looked up): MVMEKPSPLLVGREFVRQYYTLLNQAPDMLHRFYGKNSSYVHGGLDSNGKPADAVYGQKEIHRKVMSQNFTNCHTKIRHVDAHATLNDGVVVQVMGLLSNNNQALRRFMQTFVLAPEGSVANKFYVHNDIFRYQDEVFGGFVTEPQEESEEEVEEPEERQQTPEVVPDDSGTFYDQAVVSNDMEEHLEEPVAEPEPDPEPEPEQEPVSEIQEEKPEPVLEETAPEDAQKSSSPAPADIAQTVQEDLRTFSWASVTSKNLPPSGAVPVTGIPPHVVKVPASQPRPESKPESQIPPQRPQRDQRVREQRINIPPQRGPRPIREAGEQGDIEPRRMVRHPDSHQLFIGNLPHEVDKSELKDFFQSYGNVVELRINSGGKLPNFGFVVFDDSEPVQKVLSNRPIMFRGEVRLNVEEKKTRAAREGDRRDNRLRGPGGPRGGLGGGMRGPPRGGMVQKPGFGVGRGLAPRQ
Technique: RNA Bind-n-Seq
Molecule type: RNA
Sample: in vitro
Tested at: 1 µM
Setting: whole 134-nt RNA, ends assumed
Added: 150 mM KCl
Baseline: input library
Direction: higher = stronger binding
Shared flanks, not repeated: GGGAGUUCUACAGUCCGACGAUC … UGGAAUUCUCGGGUGUCAAGG
Sequence	log2 enrichment
UUAUUCUGUGUGACACCUGCCCUCGUGCCUACCACCUCGUCUGCCUUGAUCCUGAGCUUGACCGGGCUCCAGAGGGCAAAUGGAGCUGCC	0.121
UCCUGUGCUACACAUCGUAUGUACCGAAUCGGCCCCCCGGGCCCCCCGGGGCCCCCCGGGAAAGUAUUAUGUUACGCCGUUCGGAUCUGC	-0.496
UCCCUGUCCAAGCUGAGCGCCCUCAACGAGAGCCUUGCUCAGGACAAGUUGGAUCUGAACUGCCUUGUCACCCAGGUACACUGUGCACCU	0.634
GUCCUGUGCUACACAUCGUAUGUACCGAAUCGGGUUUUUUUGGGAAAAAAAGGGAGGGAAAGUAUUAUGUUACGCCGUUCGGAUCUGCAC	0.0913
UGGAUUUUCAAGACACGAAUGCUCGGAGUCUGGCAGAAAGGAAGAGAGAAGAGGAGAAGCAGAAGCACUUGGAUAAAAUUUAUCAAGAAA	-0.18
UGGCCCUGGUGGCAUGCGGGGAGGAAGAGGAGGCCUCAUGGAUCGUGGUGGUCCCGGUGGAAUGUUCAGAGGUGGCCGUGGUGGAGACAG	0.813
CAAGUCCUGUGCUACACAUCGUAUGUACCGAAUCGGGUUUUGGUUUUGGUUUUGGGAAAGUAUUAUGUUACGCCGUUCGGAUCUGCACUU	-0.386
GGGACGUCAGCAUCGGCAUCAAGUGUGCCCCUGGAGUGGUAGGCCCCGCCGAAGCUGACAUCGACUUCGACAUCAUCCGCAAUGACAAUG	-0.378
ACCAUGCAGGUGGGCAUCUUUGGGAAGUGGGGCAAGGGGGGGAUAGGGAGGGGAGUAACACUUUGGGAACAGGUGGUCCCAGGUCGUUUC	0.718
AGUCCUGUGCUACACAUCGUAUGUACCGAAUCAAAUUUAAACCCCCCCAAAUUUAAAAAAGUAUUAUGUUACGCCGUUCGGAUCUGCACU	-0.127
GCAGGAAGUAAAAACAAAUGGAAAUGCUUCGGAUAGUGGCAGGGGUGGGGGUUGCUAAGGAAAGGGUGGGAUGGGAGUGUGUAAAGAGUU	1.26
ACCAUGCAGGUGGGCAUCUUUGGGAAGUGGGGCAAGGGGGGGAUAGGGAGGGGGGUAACAAUUUGGGAACAGGUGGUCCCAGGUCGUUUC	1.02
UCCUGUGCUACACAUCGUAUGUACCGAAUCAAACCCCCAAAUUUUUAAAUUUUUUUAAAAAAGUAUUAUGUUACGCCGUUCGGAUCUGCA	-0.408
GUCCUGUGCUACACAUCGUAUGUACCGAAUCAAACCCCCCCAAAUUUUUAAAUUUAAAAAAGUAUUAUGUUACGCCGUUCGGAUCUGCAC	-0.469

Series 3
Target: RNA binding protein fox-1 homolog 2, RRM domain, GST-SBP tag (RBFOX2, Homo sapiens, UniProt O43251-10, residues 100-194)
Technique: RNA Bind-n-Seq
Molecule type: RNA
Sample: in vitro
Tested at: 365 nM
Setting: natural RNA segment, single round, ends assumed
Baseline: no-protein control
Direction: higher = stronger binding
Shared flanks, not repeated: GGGAGUUCUACAGUCCGACGAUC … UGGAAUUCUCGGGUGCCAA
Residues (chain): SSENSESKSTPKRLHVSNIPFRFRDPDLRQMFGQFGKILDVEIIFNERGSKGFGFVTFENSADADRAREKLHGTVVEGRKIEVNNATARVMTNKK
Sequence	RBNS enrichment (R)
AGGGACCCUCUGUGCCUUCUUCUUUGUUUUGUGAUAAACAUAACUUGCCAACAGUCUCUAUGCUUAUUUACAUCUUCUACUGUUCAAACUAAGAGAUUUUUAAAUUCUGA	0.505
CAUCACGUGGAAAAACUAGAUCCUGUUGGUUAUAGCAUUUGUGAGUUCUCCACGUCUGUCUCUCUCGCUCAUGUAAUAUACUCUGACCCUGAGUGGAAAGGGGUUUUUGU	0.838
GCAGACUGAUUCGAACACAAGGCAUCUGUGAGGGGAGUCCUCCCUCUUCAAAGCAUCUGUGUGAGGGGGUCUUCCCUCUUACAAGAAAGCUGUCUGUUGGGGGUUACAAG	0.519
CAUGACCUUGGAAGCUUUCUUCUCUCCAGAACAUUUGGAAAGGGGUAGAAGACCAUAUGGCUUACUUGUUCCAUAGCUCCAAGUGAGUCUGUAAUAAUGUUUGUGAAUCU	0.367
CCUCGGCCCUCCGGACCCGGCUGCGGCCCCCGCCUCCGAGACCAAAUAGAGACGCUGCUUCUCCCUCGCCUGGUGCCGCCCCCGCCGGGCAGGGGCCAUCCACCCGCCCC	0.41
UUAGUCAGUUUUUAGGGGAUUUUCGGGGAGGGGAAAUAGGUAAUGUAUGGAGCAUUUUCACUUCUAAAUAGUUAGAUACAGAAAUUAAGUGCAUUGUAUCUUUUUCAUAA	1.4
UUGCCUUCCAGGUGAAGGUGCAAAGUCAUACAUAUUAAUGACCUGACAGUUAACAUUCUGUUGUUUAUUAUUGCCUUUCUCCACCUUAGAGAGCCAUAAAUAACUCUCUG	0.305
CUUGUCUUACAAUGUUACCUUUAAGUGAAUCACAUAAUUGUCUUUGGAACUUGGUCUCCCAACACUUAUUGUGAUUGCAAAGUGUUUACCAGAUAUUUGAUGAGGUGCUA	0.32
AAACCACCUUUAAUCUAGAUACAUAGACUAACAGUGGAUUUUUUUUAACCCUUUAUCUUUCUGCCCACCCUGCCCAAACAUAUUUUAACCCAGGUUCUAAACUGAAACUG	0.398
AUACAGUGUGAUUUCAUGCUUUUGAACAUCUUUUUUUCAUUGAAACAAAUUCAAGUUCUUGGCUUAAAAAAAAAUUAGUGAUGUCUUUAAAAAAUAUUCUGUUACACUAC	0.808
UCGACUCCACACCCUGCCGCUACUUCACGUGAGAGGCUGCAGGAACAGGUGGGCUGCCGCCCAUGGAACCGGUGGCUGUUUCUCUACCCUUCACAUCAAGCUGGCCUUGC	0.435
GGAGGGUUGUGGUUCCUGUCACCUGGGCUGAGGAGCCAGGAAGGCCUAAGCACUUCACUCACACACGCGAGUGGGCGAGUGCGUGUGCCUGUGCACACUUCACACACUGG	0.205

Series 4
Target: RING finger protein unkempt homolog, zinc fingers 1-6, GST-SBP tag (UNK, Homo sapiens, UniProt Q9C0B0, residues 30-357)
Sequence of UniProt Q9C0B0 (30-357, looked up): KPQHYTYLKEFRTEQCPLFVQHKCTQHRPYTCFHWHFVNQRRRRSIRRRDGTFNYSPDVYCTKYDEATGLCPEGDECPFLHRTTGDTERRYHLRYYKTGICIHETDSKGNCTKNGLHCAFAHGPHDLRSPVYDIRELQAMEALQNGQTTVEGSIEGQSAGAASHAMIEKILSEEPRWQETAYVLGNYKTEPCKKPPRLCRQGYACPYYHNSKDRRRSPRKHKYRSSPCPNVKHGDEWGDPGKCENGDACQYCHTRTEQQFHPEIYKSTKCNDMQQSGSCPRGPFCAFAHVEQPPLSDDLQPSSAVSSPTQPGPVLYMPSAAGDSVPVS
Technique: RNA Bind-n-Seq
Molecule type: RNA
Sample: in vitro
Tested at: not given
Setting: RNA with constant flanks, ends assumed
Baseline: input RNA pool
Direction: higher = stronger binding
Shared flanks, not repeated: GGGAGUUCUACAGUCCGACGAUC … CAACAGAGGAUUGAGCAUCA
Sequence	bound/input enrichment
UCCCGCCUACAGAAAGAUUUUGAGAGACAUUUUAAGGACCUCAGGUUCAUUAAAAAGGACUCCGAACUUUUCUCAAAUCCAUUUAGCUUUAAACCGGAAUAUGCGCCUAUUUCUGUAAGA	2.77 ratio
CCACAGCCCUUAUUACAGCAGCCUCAGCAAAAAGCUGGUUUAUUGCAGCCUCCUGUUCGUACCGUUUCACAGCCACAACCGGCACGACGAUUAGAUCCCCCAUCCCGAUUUUCAGGAAGA	0.772 ratio
GAAAUCCAUAUUUAUUUUGUAAUUAACUGUCAAGCCUGUGGAUGAUUUUUUUGAACUUGGCCGUUCAUAAAGGUUUACAGUGAAUAAAAGGAUAUCAUCUUGAGUAUAGCAAUAUCAAAA	0.551 ratio
UCCUUUCAGUUUUUAUUAAUCUACUGUAUCAAUAAAAUUCUGUAAUUUGAAUGAGUUUUUAACCGUCCCGAAUGUUAUUGUGUAUAGAUAUUUCCUCUUGAACGUUAUGUUCAGAAAAUG	0.746 ratio
GAGGGCAGGGCUCACAGACUCCAAAAGCUGACAAAGUCCCAUCACUUACACAAACAGUGAUUCCGAACAACUUCGAAAAAUCAGGCGGCGAAGUCCCCACGAUGACACCGAGUCCUUUAC	0.128 ratio
CUUAUGUAUCUACUAGCAUAUCCACAAAAGCCCAUGGUUAAAACAAAAACAAUCGAGUUGACCGAUUUUGAGAAGUUGCCGGCUGGCCAGAACGCAACUGUUGCCGUGAUGAGCUACAGC	0.378 ratio
CUCCUGUAAUCACUUUUGGAGGGCUGCUUGGAGAAGCUACAGAAGGCAGAAUAAGUGCAACCGAGUCUCUUUUUGGAGCGUCAUUAACUGGGAUUGCCUAUUCAUUGUUUGCUGGGCAAC	0.161 ratio
CCAAGCACUGGAACACUUCCACCAUCUCUCUCUGCUUAUCAGCAUCCCACCACCUUCAGCAACCGAAACUUUGCUACCACUUCACCUUUGGUGCUUCAGGAUUCAACUUUUAACACUACA	0.535 ratio
CUGGGAAUUGGGCCAGGACCAGUAGAACUAAUUGAUGAAGUUACUGGCCACCUAAAACUUUACCCGAUAAGCUUUUGCUUGAUGGAGAUUCUGUCCGAAGACUAUGGAGCCUGUCAGUAA	0.207 ratio
ACAGCUAUCUGGAACUUACUCGUUACAACAGGGCGAGAAGUUAAAUAUGACUUGUUGGUCCGCAAUGCAAUUCAGUUUCUGGCUUCAGUUUGUGAAAGGCCACAUUAUAAGAAUCUGUUU	0.161 ratio
GUCUGCAGUGAGUUCUGUCACUGCUGGAGAAAAGUGUGUUUUGACUUCUCAGAGAACGUCACCCGGGUCUGUCCAGCAGCACCCAAAGACUCAGUAGUGACAAGGCUGAGUUCUUGCAGG	0.165 ratio
